# Published values of several laboratories.
# Protocols differ between the studies behind these lines. “And” joins repeats or separate records; there may be more than shown. Numbers after ± are the reported error.
Structure (SMILES),assay,system,setting,how to read,quantity,result
COc1ccc([C@@H](O)c2cc(-c3ncnc4cc(N5CCOCC5)ccc34)c(F)cc2Cl)nn1,,"patients, advanced solid tumours","oral, 250 mg twice daily, treatment-emergent, added: avelumab",baseline: patients,vascular disorders incidence,2%
COc1ccc(C[C@@H]2NC(=O)[C@H]([C@@H](C)O)NC(=O)[C@@H]3[C@@H]4CCN3C(=O)[C@@H]3Cc5cn(c6ccc(F)cc56)CCCCCCN(Cc5ccc(cc5)CCNC(=O)[C@]5(C)CCCN5C2=O)C(=O)CCC(=O)N[C@@H](C)C(=O)N[C@H](CNC(=O)CCCCC[N+](C)(C)C)C(=O)N[C@@H](Cc2cccc(c2)CNC(=O)CO4)C(=O)N3)cc1,measured: vessel puncture site pain,human,dose not given,,participants with adverse event,3.9%
CC(C)[C@H](C(=O)O[C@H](C#N)c1cccc(Oc2ccccc2)c1)c1ccc(Cl)cc1,measured: CYP2C8,"human, age 6 months",,,enzyme contribution to clearance,0.98%
CN1CCN(S(=O)(=O)c2cc([N+](=O)[O-])ccc2N(CCOS(C)(=O)=O)CCOS(C)(=O)=O)CC1,,"naive NOD/SCID mice, pooled blood","intraperitoneal, 12.5 mg/kg, week 4",,phosphate,2.1 mmol/L
COc1ccc(CCC2CCCC(CCc3ccc(OC)cc3)N2C[C@@H](O)CO)cc1.Cl (stereo in doubt),,rabbit Purkinje fibres,"0.1 µM, cycle length 1 s",baseline: baseline,resting membrane potential change,0.5 ± 0.6 mV
CCN(CCO)CCCC(C)Nc1ccnc2cc(Cl)ccc12 (centres unmarked),,newly diagnosed glioblastoma patients,"oral, 400 mg/dose, grade 1, added: radiotherapy plus temozolomide",,alkaline phosphatase increased patients,29%
O=C1Nc2cc3[nH]nc(-c4ccncc4)c3cc2CN1Cc1ccccc1,CTCAE v4.03,advanced solid tumour patients,"intravenous, 9.6 mg/kg, schedules 1/2",,patients with back pain,22%
CCCCCCCCCC(=O)N[C@@H](Cc1c[nH]c2ccccc12)C(=O)N[C@H](CC(N)=O)C(=O)N[C@@H](CC(=O)O)C(=O)N[C@@H]1C(=O)NCC(=O)N[C@@H](CCCN)C(=O)N[C@@H](CC(=O)O)C(=O)N[C@H](C)C(=O)N[C@@H](CC(=O)O)C(=O)NCC(=O)N[C@H](CO)C(=O)N[C@@H]([C@H](C)CC(=O)O)C(=O)N[C@@H](CC(=O)c2ccccc2N)C(=O)O[C@@H]1C,population PK model,human,"intravenous, two-compartment model",,clearance,0.011 L/min
Cn1ncc(-c2nc(N[C@H]3CC[C@H](N)CC3)ncc2Cl)c1CC1CC1,measured: hypotension grade 3 or higher,human patients phase I,dose not given,,adverse event incidence,13%
CN1CC[C@@H](c2c(O)cc(O)c3c(=O)cc(-c4ccc(C(F)(F)F)cc4Cl)oc23)[C@@H]1CO,measured: urinary incontinence,B-cell malignancies,"oral, 100 mg, grade 3 to 4, intermittent dosing",,patients with adverse event,0%
CCCCCCCCCCCCCCCC(=O)N[C@@H](CCC(=O)NCCCC[C@H](NC(=O)[C@H](CC(=O)O)NC(=O)[C@H](CO)NC(=O)[C@@H](NC(=O)[C@H](Cc1ccccc1)NC(=O)[C@@H](NC(=O)CNC(=O)[C@H](CCC(N)=O)NC(=O)[C@H](CO)NC(=O)[C@@H](N)Cc1c[nH]cn1)[C@@H](C)O)[C@@H](C)O)C(=O)N[C@@H](CO)C(=O)N[C@@H](CCC(=O)O)C(=O)N[C@@H](Cc1ccc(O)cc1)C(=O)N[C@@H](CC(C)C)C(=O)N[C@@H](CC(=O)O)C(=O)N[C@@H](CO)C(=O)N[C@@H](CCC(=O)O)C(=O)N[C@@H](CCCNC(=N)N)C(=O)N[C@@H](C)C(=O)N[C@@H](CCCNC(=N)N)C(=O)N[C@@H](CC(=O)O)C(=O)N[C@@H](Cc1ccccc1)C(=O)N[C@H](C(=O)N[C@@H](C)C(=O)N[C@@H](Cc1c[nH]c2ccccc12)C(=O)N[C@@H](CC(C)C)C(=O)N[C@@H](CCC(=O)O)C(=O)N[C@@H](C)C(=O)NCC(=O)NCC(=O)O)C(C)C)C(=O)O,measured: Nausea,humans CrCl 30 to 45 mL/min,"subcutaneous, 100 µg single dose",,treatment-related adverse events,27.3%
CCc1ccc(CC/C=C/c2ccc3c(c2)C(=O)CC3)cc1,,"Sprague-Dawley rat, female, blood","oral, 450 mg/kg/day, 14 days",,MCH,18.9 pg
C[C@H]1C[C@@H](N2C(=N)N[C@](C)(c3cccc(NC(=O)c4cccc(C#N)c4)c3Cl)CC2=O)CCO1,,rat,"1000 mg/kg, every other day",,monocytes count change,46%
CC(=O)c1c(C)c2cnc(Nc3ccc(C4CCN(CCS(C)(=O)=O)CC4)cn3)nc2n(C2CCCC2)c1=O,,"human patients, plasma","oral, 100 mg twice daily, day 21 multiple doses",,AUC(0-t),1720 ng·h/mL
CN(C)C1(CNC(=O)c2ccc3c(c2)CCN3C(=O)c2ccccc2)CCOCC1,,male C57BL/6 mice,"intraperitoneal, 50 mg/kg, 120 min",,unbound plasma concentration,153 nM
CC(C)c1nc(N(C)S(C)(=O)=O)nc(-c2ccc(F)cc2)c1/C=C/[C@@H](O)C[C@@H](O)CC(=O)O,,healthy human subjects,"oral, dose not given, study CL-0537 safety set",,incidence musculoskeletal disorders,0%
NCCCC[C@@H]1NC(=O)[C@@H](Cc2c[nH]c3ccccc23)NC(=O)[C@H](c2ccccc2)NC(=O)[C@@H]2C[C@@H](OC(=O)NCCN)CN2C(=O)[C@H](Cc2ccccc2)NC(=O)[C@H](Cc2ccc(OCc3ccccc3)cc2)NC1=O,,healthy human volunteers,1950 µg twice daily,,subjects with abdominal pain,42%
O=C(Nc1ccccc1)C1CCN(C(=O)Oc2cccnc2)CC1,psychotropic effects VAS,healthy women,100 mg,"baseline: pre-dose baseline, direction not given",change in High score,3.3
C[C@]1(O)C[C@@](N)(c2ccc(-c3nc4n(c3-c3ccccc3)COc3ccncc3-4)cc2)C1,,"human, advanced or metastatic solid tumours","16 mg once daily, phase I dose escalation",,patients with Diarrhea TEAE,0%
O=S(=O)(Nc1ccccc1)c1ccc(NC(=S)Nc2ccccc2)cc1,measured: TRIG,"female mouse, blood","oral, 80 mg/kg daily, 14 days",,blood chemistry level,120 mg/dL
COc1cc2c(Oc3ccc4[nH]c(C)cc4c3F)ccnc2cc1OCC1(N)CC1,,paediatric recurrent refractory sarcoma,8 mg/kg,,grade 1 or 2 Rash,20%
CCC[C@@](N)(CO)CCc1ccc(OCCCCCC(C)C)cc1,,"hound dogs, male","oral, 10 mg/kg, capsule, fed state, geometric mean",,AUC(0-inf),14.7 µM·h
N#C[C@H](O[C@@H]1O[C@H](CO[C@@H]2O[C@H](CO)[C@@H](O)[C@H](O)[C@H]2O)[C@@H](O)[C@H](O)[C@H]1O)c1ccccc1,,"Sprague Dawley rat, plasma","oral, 10 g lyophilized powder/kg, high dose",,Tmax,10.2 ± 3.6 min
N#C/N=C1\SCCN1Cc1ccc(Cl)nc1,,soil,"56 days, nominal 1.1",,concentration,0.02 mg/kg dry soil
CC(C)[C@H](N)C(=O)NCCCS(=O)(=O)O,,human,"oral, 265 mg twice daily, 7 h post-dose, steady state, week 65",,plasma concentration,90 ng/mL
Clc1ccc(-c2ccccc2)cc1,,"female Sprague-Dawley rats, serum","inhalation, 23 µg/rat, 1 h after exposure",,total protein,6 ± 0.2 g/dL
O=C(c1ccc(F)c(F)c1Nc1ccc(I)cc1F)N1CC(O)([C@@H]2CCCCN2)C1,,human patients,"oral, dose not given, dose escalation, tablet",,treatment-related adverse events,89%
COc1ccc2nc3cc(Cl)ccc3c(Nc3cc(CN4CCCC4)c(O)c(CN4CCCC4)c3)c2n1,,"mouse, blood","intraperitoneal, 57 mg/kg",,creatinine level,24.9 µmol/L
Cc1cccc(Cn2nc(C3CC3)c3c(NC(=O)c4cnc5cc(OCCN6CCN(C)CC6)ccn45)cccc32)n1,"CTCAE v4.03, measured: blood CPK increased",patients with advanced solid tumours,"oral, 400 mg, dose escalation, added: pembrolizumab 2 mg/kg IV every 3 weeks",,all-cause adverse events,42.9%
CC(C)[C@@H]1NC(=O)CNC(=O)[C@H](CC(N)=O)NC(=O)[C@H](CCCNC(=N)N)NC(=O)[C@H](Cc2ccc(O)cc2)NC(=O)[C@H](C(C)C)NC(=O)[C@@H](NC(=O)[C@@H](NC(=O)[C@H](CC(N)=O)NC(=O)[C@H](Cc2c[nH]c3ccccc23)NC(=O)[C@H](C)NC(=O)[C@H](Cc2ccccc2)NC(=O)CN)C(C)C)CSSC[C@@H](C(=O)N[C@@H](Cc2cnc[nH]2)C(=O)N[C@@H](CCCNC(=N)N)C(=O)N[C@@H](CCCNC(=N)N)C(=O)N[C@@H](C)C(=O)N[C@@H](CC(N)=O)C(N)=O)NC(=O)[C@H](C(C)C)NC(=O)[C@H](CCCNC(=N)N)NC1=O,HPLC,mouse mammary gland homogenate,"2560 µM, 2.00 h, 37 °C, 50 mg/mL tissue",,remaining peptide,67.2% and 78.9% and 73.5%
CO[C@H]1C[C@@H]2CC[C@@H](C)[C@@](O)(O2)C(=O)C(=O)N2CCCC[C@H]2C(=O)O[C@H]([C@H](C)C[C@@H]2CC[C@@H](OC(=O)NCCOCCOCCOCCOCCOCCOCCOCCOCCC(=O)N3CCc4cc(Cn5nc(-c6ccc7oc(N)nc7c6)c6c(N)ncnc65)ccc4C3)[C@H](OC)C2)C[C@@H](O)[C@H](C)/C=C(\C)[C@@H](O)[C@@H](OC)C(=O)[C@H](C)C[C@H](C)/C=C/C=C/C=C/1C,,patients with advanced solid tumours,"intravenous, 1.6 mg/3 mg weekly, grade ≥3",,incidence of Vomiting TRAE,0%
N=C(N)NCCC[C@@H](NC(=O)[C@@H](N)Cc1ccccc1)C(=O)N[C@@H](Cc1ccccc1)C(=O)N[C@@H](CCCCN)C(N)=O,LC-MS,human,"5 mg, 11.83 h",,mean amount excreted in urine,302000 ng
CCN1[C@@H](C(=O)NC23CCC(C(=O)O)(CC2)CC3)[C@H](c2cccc(Cl)c2F)[C@]2(C(=O)Nc3cc(Cl)ccc32)C12CCCCC2,,patients with advanced solid tumours,"oral, dose not given, all doses",,Dizziness incidence,9.5%
CC1(CC(F)(F)F)NC(=O)N(c2ccc(F)c(C(F)(F)F)c2)C1=O (centres unmarked),,Schistosoma mansoni-infected NMRI mice,"oral, 100 mg/kg, single dose",,toxicity,toxic
Cc1cc(C)c(CNC(=O)c2cc(Cl)c3c(c2C)O[C@@](C)([C@H]2CC[C@H](N(C)C)CC2)O3)c(=O)[nH]1,,relapsed/refractory NHL patients,"dose not given, trial, safety set, all TEAEs grade 5",,incidence of mental status changes,0%
C[C@]1(CO)Cc2ncn(-c3ccc(C#N)c(Cl)c3)c2C(=O)O1,measured: abnormal skin odour,human,"80 mg multiple doses, fasted",,subjects with drug-related TEAE,0%
C[C@@H](NC(=O)N1C(=O)[C@H](Cc2ccnc(N)c2)[C@H]1C(=O)O)C1CCCCC1,,healthy Chinese adults,"continuous intravenous infusion, 2.25 mg/kg/h, 5.0 days",,urine leukocyte-positive,12.5%
CC[C@H](C)CCCCC(=O)N[C@@H](CCN)C(=O)N[C@H](C(=O)N[C@@H](CCN)C(=O)N[C@H]1CCNC(=O)[C@H]([C@@H](C)O)NC(=O)[C@H](CCN)NC(=O)[C@H](CCN)NC(=O)[C@H](CC(C)C)NC(=O)[C@@H](CC(C)C)NC(=O)[C@H](CCN)NC1=O)[C@@H](C)O,dialysis,porcine stomach mucin,"4 h, 37 °C, drug alone",baseline: without mucin,efflux with mucin,20%
